Results gathered from unrelated publications.
Every numbered part comes from another study and shows a few of its results, in no order.

Block 1 — technique: protein binding microarray; form: double-stranded DNA, one strand shown; medium: in vitro; tested at: not given; baseline: not given; direction: higher = stronger binding
Target: Histone acetyltransferase KAT6A, both winged helices, GST fusion (KAT6A, Homo sapiens, UniProt Q92794, residues 1-181)
Notes: 8-mer, flanks averaged, mean of 2 arrays, mostly near background
Target sequence (chain): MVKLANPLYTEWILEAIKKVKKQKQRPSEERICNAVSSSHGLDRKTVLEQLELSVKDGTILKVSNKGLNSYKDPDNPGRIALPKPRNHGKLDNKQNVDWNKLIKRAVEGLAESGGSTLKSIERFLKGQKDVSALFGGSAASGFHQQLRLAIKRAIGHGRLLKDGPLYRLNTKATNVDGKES
| Oligonucleotide | E-score |
| --- | --- |
| ACCAGTCC | -0.0183 |
| GCATGCTA | -0.0183 |
| ACCATAGT | -0.126 |
| GTCCCGGA | 0.169 |
| AAAACATG | -0.0801 |
| GTTCGATA | 0.041 |
| GGACGCCA | 0.076 |
| GGGCAACC | -0.0859 |
| CAAGGACG | 0.0665 |
| ATTGCAGC | -0.0277 |
| CTTCCGCA | 0.1 |
| CTTCCTAA | -0.224 |
| ACTCACTG | -0.163 |
| ATGTCGGA | 0.0848 |
| GTTTGGAA | -0.137 |
| TCTAGCAA | -0.116 |

Block 2 — technique: protein-binding microarray; form: hairpin DNA; medium: in vitro; tested at: not given; baseline: not given; direction: higher = stronger binding
Target: Homeobox protein Hox-C11, full length (HOXC11, Homo sapiens, UniProt O43248, residues 1-304)
Sequence of UniProt O43248 (whole entry, looked up): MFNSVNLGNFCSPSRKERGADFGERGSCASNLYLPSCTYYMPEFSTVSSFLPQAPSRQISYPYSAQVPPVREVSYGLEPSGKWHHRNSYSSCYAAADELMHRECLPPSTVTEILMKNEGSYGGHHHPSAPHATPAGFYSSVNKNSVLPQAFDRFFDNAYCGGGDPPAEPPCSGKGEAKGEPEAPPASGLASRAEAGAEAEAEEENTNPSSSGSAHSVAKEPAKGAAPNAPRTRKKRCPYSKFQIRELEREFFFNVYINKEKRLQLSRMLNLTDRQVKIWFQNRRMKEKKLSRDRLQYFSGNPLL
Notes: whole hairpin DNA, median over replicate spots
| Oligonucleotide | median fluorescence |
| --- | --- |
| GAGGCCAGGTCGTTCAAGCCTCCTGGCTTGAACGACCTGGCCTCACACTC (5mC at 15) | 9680 a.u. |
| GAGGCCAGGTCCGTAAAGCCTCCTGGCTTTACGGACCTGGCCTCACACTC (5mC at 12) | 9430 a.u. |
| GAGGCCAGGTCGTTGAAGCCTCCTGGCTTCAACGACCTGGCCTCACACTC | 10400 a.u. |
| GAGGCCAGGTCGCGAAAGCCTCCTGGCTTTCGCGACCTGGCCTCACACTC (5mC at 31) | 11500 a.u. |
| GAGGCCAGGTCGATAAAGCCTCCTGGCTTTATCGACCTGGCCTCACACTC | 10100 a.u. |
| GAGGCCGGGTCGTTAAAGCCTCCTGGCTTTAACGACCCGGCCTCACACTC | 12100 a.u. |
| GAGGCCAGGTCGTTACGGCCTCCTGGCCGTAACGACCTGGCCTCACACTC (5mC at 16) | 10600 a.u. |
| GAGGCCAGGCGGTTAAAGCCTCCTGGCTTTAACCGCCTGGCCTCACACTC (5mC at 34) | 9470 a.u. |
| GAGGCCAGGTCGTACAAGCCTCCTGGCTTGTACGACCTGGCCTCACACTC | 10400 a.u. |
| GAGGCCAGGTCGTTAAAGCCTCCTGGCTTTAACGACCTGGCCTCACACTC (5mC at 37) | 10600 a.u. |
| GAGGCCAGGTCGTACAAGCCTCCTGGCTTGTACGACCTGGCCTCACACTC (5mC at 15) | 9710 a.u. |
| GAGGCCAGGTCGCGAAAGCCTCCTGGCTTTCGCGACCTGGCCTCACACTC (5mC at 13 31) | 10400 a.u. |
| GAGGCCAGGCGGTAAAAGCCTCCTGGCTTTTACCGCCTGGCCTCACACTC (5mC at 10) | 9770 a.u. |
| GAGGCCACGTCGTTAAAGCCTCCTGGCTTTAACGACGTGGCCTCACACTC (5mC at 8) | 8810 a.u. |
| GAGGCCAGGTCGTTAAAGCCTCCTGGCTTTAACGACCTGGCCTCACACTC (5mC at 11) | 10400 a.u. |
| GAGGCCAGGTCGTAAAAGCCTCCTGGCTTTTACGACCTGGCCTCACACTC (5mC at 36) | 11200 a.u. |
| GAGGCCAGGTCGTACGAGCCTCCTGGCTCGTACGACCTGGCCTCACACTC (5mC at 15 29) | 10000 a.u. |
| GAGGCCAGGTCGTACGAGCCTCCTGGCTCGTACGACCTGGCCTCACACTC (5mC at 15) | 9850 a.u. |

Block 3 — technique: universal PBM; form: double-stranded DNA, one strand shown; medium: in vitro; tested at: not given; direction: higher = stronger binding
Target: Sal-like protein 4, full length isoform B (SALL4, Homo sapiens, UniProt Q9UJQ4-2, residues 1-616)
Notes: 8-mer, flanks averaged, mean of replicates
Construct (chain): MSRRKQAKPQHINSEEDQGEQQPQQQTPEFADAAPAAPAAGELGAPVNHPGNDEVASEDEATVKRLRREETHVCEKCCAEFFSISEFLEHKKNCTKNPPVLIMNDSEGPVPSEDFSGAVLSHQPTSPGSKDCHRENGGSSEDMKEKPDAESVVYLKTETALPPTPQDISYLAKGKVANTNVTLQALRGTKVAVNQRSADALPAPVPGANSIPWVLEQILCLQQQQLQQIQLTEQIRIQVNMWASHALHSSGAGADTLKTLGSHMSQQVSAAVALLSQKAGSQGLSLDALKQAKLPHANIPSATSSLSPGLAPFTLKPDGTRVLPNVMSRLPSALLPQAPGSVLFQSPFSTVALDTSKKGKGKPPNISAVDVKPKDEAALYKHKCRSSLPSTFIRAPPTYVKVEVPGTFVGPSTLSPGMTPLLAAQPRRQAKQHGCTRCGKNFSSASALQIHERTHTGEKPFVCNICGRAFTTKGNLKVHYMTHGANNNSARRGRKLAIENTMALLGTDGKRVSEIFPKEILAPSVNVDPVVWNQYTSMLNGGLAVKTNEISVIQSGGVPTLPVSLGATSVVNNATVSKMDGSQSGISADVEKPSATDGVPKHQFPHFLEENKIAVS
| Oligonucleotide | E-score |
| --- | --- |
| ACTCGGCC | -0.238 |
| GTAATTTA | 0.309 |
| AGAAATCA | 0.223 |
| CAGTCTGC | -0.222 |
| AACCAACC | -0.124 |
| CGCGAACG | -0.135 |
| GACACGAA | -0.12 |
| ACTAGCTA | -0.0584 |
| GGGCTCAA | -0.164 |
| GCGCAGAA | -0.186 |
| CCTCATTC | -0.0402 |
| CGAAGACC | -0.176 |
| AGACTTAC | 0.044 |
| CATTACTA | 0.312 |
| GCCTAACA | -0.104 |
| TGCCAACA | -0.0524 |
| AATTCCGC | -0.0488 |
| AACCTTCC | -0.169 |
| CGTTCTCC | -0.133 |
| GGAGGTGA | -0.0719 |
| GAGTCGTA | 0.0358 |
| ACGTGTAA | 0.192 |

Block 4 — technique: RNA Bind-n-Seq; form: RNA; medium: in vitro; tested at: 365 nM; baseline: no-protein control; direction: higher = stronger binding
Target: RNA binding protein fox-1 homolog 2, RRM domain, GST-SBP tag (RBFOX2, Homo sapiens, UniProt O43251-10, residues 100-194)
Notes: natural RNA segment, single round, ends assumed
Shared flanks, not repeated: GGGAGUUCUACAGUCCGACGAUC … UGGAAUUCUCGGGUGCCAA
Residues (chain): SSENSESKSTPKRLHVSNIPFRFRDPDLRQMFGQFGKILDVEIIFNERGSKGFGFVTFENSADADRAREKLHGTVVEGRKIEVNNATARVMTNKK
| Oligonucleotide | RBNS enrichment (R) |
| --- | --- |
| GCCGGCAUGGUAAAAGGAAGCUGUCUCCCUUCUGACAUUUCCUAGGAAGCUAGGAAAAGGAAAGUGAAGGAAUGGUCUAAAGAAAUGACCAUUCACACUGAUUUUGUCUG | 0.374 |
| CCAGUAAGCCCUUCUGGGUUUGAGUGUGUUCCCAUGUAGGAGGUAAAACCAAUUCUGGAAGCAUCUAAGCUUCCAUAAAUAACUUUAAUUCUUAGCAUAAUGACGGCCUU | 0.251 |
| CCUUUGUGAGGAGCCGGGCGCAGCCUGCUCGCCUGUGGUGAAACCCAUGGGGUGUCACACCCCACACCUCAUGCUCGAGAGGCCCGACCCAGGGGCAGAAAACGGGGCUU | 0.474 |
| AGGUGCUUGAGAAAGUGUACACUGCAGAACUGCCCAUUCUCAUUACUGUGUCCUAUUUUAUUCAUGCCUGUGUGUUUUUCUUAAGUAUGAAUUCUAGAUACAGCUACUUA | 2.09 |
| ACCAACAUGGAGACCAAUGGGGUGGUGCCCGGCAUGUAAGCCCCGCCCACCCCACGGAGGCCACAGCCACACAGCCACGCCCCCUGAUUCUGGAACUCGCCCAACUUCCC | 0.2 |
| UGAGCCCGUUACCGCGUGACUCCCACCAUCCAGCUCGCGCUCCUCGUGGAUUCAGCCAUGCAUGGACUGGGGUGUUCCCUGGCCCAUGGUCACCUGUGCCCCUCGUGUCU | 0.189 |
| UGAGUUUCCUUCCCCCUCCCCCCAAUUCAAACCAGGCAGUUUUUUUGGAAGCCAGGUUUCCUUACACUAAGGUAGGUCUAGGUUCUUCGGAAACUAAGAUAAACUUAGUG | 0.424 |
| GGGGCCACUGCUGAUAUUUGGCCUCUGCACAAGUGUGAGUGAAGAGAAAGAUUGGAAGCAGCUGCUGCCGCUACCGCCAACCAAAUCUUGCCAAUCCUGUCCCUGAAGCA | 1.83 |
